Results of several laboratories.
Numbered parts are unrelated; each lists some results of a single study. Positions count from the first letter of the parent shown.

Series 1 — target: CCND1, cyclin fold, Cln2 fusion (human); method: yeast growth competition, sequencing; sample: yeast; notes: weak parent motif; relative to: not given; reading: higher = stronger binding
Parent: GMNC docking peptide (human); KNAKRNLSSEFAN; partner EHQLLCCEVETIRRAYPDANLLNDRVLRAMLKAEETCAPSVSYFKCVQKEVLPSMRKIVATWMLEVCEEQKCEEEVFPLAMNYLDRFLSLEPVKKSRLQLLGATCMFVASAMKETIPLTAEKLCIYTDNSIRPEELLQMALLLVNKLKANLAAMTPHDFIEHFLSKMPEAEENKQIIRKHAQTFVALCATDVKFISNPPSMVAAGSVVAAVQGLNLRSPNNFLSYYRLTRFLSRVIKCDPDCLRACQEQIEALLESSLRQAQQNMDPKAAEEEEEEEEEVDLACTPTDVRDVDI
Change | normalised enrichment score
KTAKRNLSSEFAN [N2T] | 0.807
KNIKRNLSSEFAN [A3I] | 0.512
KNAKRNLSSEFNN [A12N] | 0.775
KNVKRNLSSEFAN [A3V] | 0.739
KNPKRNLSSEFAN [A3P] | -0.2
KNAQRNLSSEFAN [K4Q] | 0.531
KNAKRNNSSEFAN [L7N] | 0.0298
KNAKRNLSSEFSN [A12S] | 0.4
KNAKRNLSNEFAN [S9N] | 0.752
KNSKRNLSSEFAN [A3S] | 0.363
KNAKRNLLSEFAN [S8L] | 1
KNAKRNLSSGFAN [E10G] | 0.365
KNAKRNLCSEFAN [S8C] | 0.195
KNAKRNLSDEFAN [S9D] | 1.02
KNAKRNCSSEFAN [L7C] | -0.127
KNAVRNLSSEFAN [K4V] | 0.78
KNAKRNASSEFAN [L7A] | 0.412
KNAKRNLSSETAN [F11T] | 0.194
KNAKRNLSSEFYN [A12Y] | 0.245
KNAKRNLSFEFAN [S9F] | 0.936
KNAKWNLSSEFAN [R5W] | 0.45
KNAKRNLSSEFDN [A12D] | 0.947
KNAKRNLSGEFAN [S9G] | 0.201

Series 2 — method: RNA Bind-n-Seq; molecule type: RNA; sample: in vitro; concentration: 200 nM; notes: whole 134-nt RNA, ends assumed; added: 150 mM LiCl; relative to: input library; reading: higher = stronger binding; library: 7-deaza-guanosine replaces G
Target: Fragile X messenger ribonucleoprotein 1, C-terminal low-complexity region (Fmr1, Mus musculus, UniProt P35922)
Constant ends, left off below: GGGAGUUCUACAGUCCGACGAUC … UGGAAUUCUCGGGUGUCAAGG
Oligonucleotide | log2 enrichment
ACCAUGCAGGUGGGCAUCUUUGGGAAGUGGGGCAAGGGGGGGAUCGGGAGGGGGGUAACACUUUGGGAACAGGUGGUCCCAGGUCGUUUC | 0.808
UCAAGUCCUGUGCUACACAUCGUAUGUACCGAAUCGGGUGGGUUUUUGGGUGGGAAAGUAUUAUGUUACGCCGUUCGGAUCUGCACUUCC | -0.468
CUCAAGUCCUGUGCUACACAUCGUAUGUACCGAAUCGGUUGGGUUGGGGUUGGGAAAGUAUUAUGUUACGCCGUUCGGAUCUGCACUUCC | -0.158
CCUCAAGUCCUGUGCUACACAUCGUAUGUACCGAAUCGGCGGGCGGGCGGGGAAAGUAUUAUGUUACGCCGUUCGGAUCUGCACUUCCAG | 0.613
UGGGAGGUGGAUUUUGUUUAUUUUUUUAGCUCAUUACCAGGGGUGGGAAUUUUUUUUUAAUAUGUGUCAUGAAUAAAGUUGUUUUUGAAA | 0.78
UCAAGUCCUGUGCUACACAUCGUAUGUACCGAAUCGGUUUUUGGAGGAAAAAGGAAAGUAUUAUGUUACGCCGUUCGGAUCUGCACUUCC | -0.705
UGGGAGGUGGAUUUUGUUUAUUUUUUUAGCUCAUUUCCAGGGGUGGGAAUUUUUUUUUAAUAUGUGUCAUGUAUAAAGUUGUUUUUGAAA | 0.451
AGUCCUGUGCUACACAUCGUAUGUACCGAAUCGGGGAGGGGUGGGGUUUUUUUGGGGAAAGUAUUAUGUUACGCCGUUCGGAUCUGCACU | -0.556
UUGCUUCAAGAAGAUCCCUAAGCUGUAGAACAUUUUAACGUUGAUGCCACAACGCAGAUUGAUGCCUUGUAGAUGGAGCUUGCAGAUGGA | 1.35
CACAGACAACACGCACCCACACAGACACAGAGGGGAGGGGUUGGGAUGGGGACAGGGUGCACAGCAGGGCGGGGUAGGACCCCAGCCCCU | 0.0459
UUGAGAAAAGCACCCAUAAUUUGCUACUUGAGGAUUUUAUUCCCUGGAUUCUCUGGAUGCUCAUUGCAUGAAAAGUGGAAAAGUUUAGAU | -1.49

Series 3 — method: RNA Bind-n-Seq; molecule type: RNA; sample: in vitro; concentration: 365 nM; relative to: no-protein control; reading: higher = stronger binding
Target: RNA binding protein fox-1 homolog 2, RRM domain, GST-SBP tag (RBFOX2, Homo sapiens, UniProt O43251-10, residues 100-194)
Notes: natural RNA segment, single round, ends assumed
Constant ends, left off below: GGGAGUUCUACAGUCCGACGAUC … UGGAAUUCUCGGGUGCCAA
Target sequence (chain): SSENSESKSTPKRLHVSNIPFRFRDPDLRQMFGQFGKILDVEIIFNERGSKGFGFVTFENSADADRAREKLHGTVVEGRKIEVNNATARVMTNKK
Oligonucleotide | RBNS enrichment (R)
GGGCAGAAACGUUGGGCUCCAUUCCUCACGGAGAGAGCCAAGAAGUGCACAGUCCCAGAGUCACGAGGCGUGGACUUCCUUCCCCACGAUGGGCCAGGGGGCCUUACCAU | 0.279
AUGCUGCCAUGCUGGGGGGGGGUCACCCCGACCCCUCAGGCCCACCUGUCACGGGGAACAUGGAGCCUUGGUGUAUUUUUCUUUUCUUUUUUUAAUGAAUCAAUAGCAGC | 0.418
GGUGUUCCAUCUCUCUAUCAUGUCUCCUGAGUCCGUUUCACGUUUUUGAGCCUGGCUAAUGAGAAAAAGAACAAAGUAGGACCAUGACCCAGUGUUCUCCUGUAAAUCUC | 0.413
GGGACAGAUGUUCUGAACCUGGACCACAGGCCUUCCUGCUAGGCUUGCAGCCCACGGUGCACAUCUGCGCACACCCUCACUGAGGACUGAGUGCUGUUGGUACACGGAGC | 0.263
UGGAAUGCAGUGUGCUUUUUGAGACACUAGGGGGAGCCUGGUAUUAACUAAACAGCUUGCCAUUCAACAGUCUCAGGAGGGUUCUUGUACUAAACAGAUGGGGGUUCACU | 0.368
ACCUGGCUGAUUUUUGUAAUUUUAGUAGAGACGGGGUUUCACCAUGUUGGCCAGGCUGAUUAACUCCUGACCUCAGGUGAUCCACCUUUCUCGGCCUCCCAAAGUGCUGG | 0.287
AGUUGGAAUGCUUCUACCCUGGCUUCUAAAUUCAGGCCUGUGGGUAAUCCCAAGUAUACAGGAAAUUGUGGGGUAGGCUGUCUCUCGUGAAUUGAGUUCUGCUGGGGCUA | 0.411
AACAUUUCAGCAGGCCACCUCCCCUCAUCUUCCCCGCCCUGUCCAGCGCCCUGGCAAAGGCUGACAACUGGCUGUCUUGGGGCCGAACAGCCCCUGCCCUGCCUCUGAGG | 0.379
CAAAAGUCCCCAAUGACAGGAACAAAAGCAACCAAUUUUUAACUUUCUCUUCUCAUUCCUGUUUUCAUUGAUUUCCCACAUGUAGUCCUUUUGCUCAGGAAGUCUUUGGG | 0.661
CACCAGCUUUCCAAAUGCACUCUGCUUGUGUUGAAAUUCUCCCAUUUUUAUUUGGGCAUAAAAGUUGUUGCCUUUAUUUGUAAAGCUGUUAUAAAUAUAUAUUAUAUAAA | 2.33
CCCUUGAGGCCGCACAAGCUACUGCAGCCAUGGGUUUGCCUACCACCUUUCUGUUCUGUGGACUCGGUGCAGGUGGGUGGGGUGGUAAACAGUGGAAGAGCUCCUCCCCC | 0.716
CUUUCGCCUUCCCUGGGGGAGAAACCCUCUUGGCUGAUGGCUUUUCCCCGGAAUUAUCAAACAGCCACCGGGUGACUUUCUGGCUUCCAGAUCCAUCUGCCUGAGACCCC | 0.233

Series 4 — method: universal PBM; molecule type: double-stranded DNA, one strand shown; sample: in vitro; concentration: not given; reading: higher = stronger binding
Target: Sal-like protein 4, full length isoform B (SALL4, Homo sapiens, UniProt Q9UJQ4-2, residues 1-616)
Notes: 8-mer, flanks averaged, mean of replicates
Oligonucleotide | E-score
AGAGGCAA | 0.106
ATACAGAA | 0.136
ATTAATAC | 0.375
AATAACTG | 0.303
AAAATGTT | 0.316
CGGATTGA | -0.125
CCGTTCAA | -0.0176
CGAAGCCC | -0.26
AGGATGAA | 0.051
GTGGAAAC | -0.0798
CGTTCGTA | 0.126
GCGAGGGA | -0.114
AAGTGCGG | -0.0999
CGACGTAG | -0.0949
CAGCCTGC | -0.199
AATGGGCT | -0.0895
ATCCCGTA | -0.0483
AGCGACTA | 0.00704
CAGATCGG | -0.128
CGGTTAAA | 0.0656
AGCAGACC | -0.151

Series 5 — method: RNA Bind-n-Seq; molecule type: RNA; sample: in vitro; concentration: not given; relative to: input RNA pool; reading: higher = stronger binding
Target: RING finger protein unkempt homolog, zinc fingers 1-6, GST-SBP tag (UNK, Homo sapiens, UniProt Q9C0B0, residues 30-357)
Notes: RNA with constant flanks, human-mouse chimeric sites, ends assumed
Constant ends, left off below: GGGAGUUCUACAGUCCGACGAUC … CAACAGAGGAUUGAGCAUCA
Residues (chain): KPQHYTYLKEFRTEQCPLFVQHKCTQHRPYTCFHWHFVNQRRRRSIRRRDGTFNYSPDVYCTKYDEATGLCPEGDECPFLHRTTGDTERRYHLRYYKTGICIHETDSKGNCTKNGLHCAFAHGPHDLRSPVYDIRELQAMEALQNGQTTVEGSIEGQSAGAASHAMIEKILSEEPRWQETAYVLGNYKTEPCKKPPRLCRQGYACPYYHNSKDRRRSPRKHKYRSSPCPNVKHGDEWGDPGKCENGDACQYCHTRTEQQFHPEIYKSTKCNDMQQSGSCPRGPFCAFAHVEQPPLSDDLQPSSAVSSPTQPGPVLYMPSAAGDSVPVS
Oligonucleotide | bound/input enrichment [ratio]
GGCUGCUGGUGACUGUCCUGGAGUGGCUGGAGUUCCCGCCGGAGCGCGGCCAGACUAAUUAUAGAAAAUGCCAAGUAGGAAGUUUGUCGAUGGUGAAGUGGUCAGAGGCCGAUGGCCUGG | 1.48
GUGACUGGUGUUAAGAUUUCCCCUCAGAAAAGAACUGCAGUAGUCACCAUAAUUCCAUCUAUAGUGAGUGCCAGUCAGAUUGUGGAGCUGGUCCCAGACCUCAGUUUAGACAUGGGAACU | 0.684
AAAUCGUGUGUGUCAAAUAUUGAAAGUGCUUUAUCUACACUCCAGUAUGUAAGCAGUAUAGUAGUUUCUUUAGAGAAUAGGUCAGCCAUUGUAAAGUAUAAUGCAAGCUUAGUCACUCCA | 14.6
CCUCCCCCGGGCCACCCACCCCUCCCGGCUCCCCGCCAGAGCAAGGUUUUCUUCUUAUUUCAUAGCAAAUAAGAAAAAUGUUCUACGCACAUUUUGUCCUCAGUAAACGAGGGCCUCUGG | 0.642
UCAGGAACCCAGACAAACAUGAAUGUAAAUGAAGUCAUUAGCAAUAGAGCAAUUGAAAUGUUAGGAGGUGAACUUGGCAGCAAGAAGCCUGUGCACCCCAAUGAUCAUGUUAACAAAAGC | 0.826
GUACUGCAGCAGCAGGGAAAACUGCAGGAAGCUCUGAUGCACUAUAAGGAGGCUAUUCGAAUCAGUCCUACCUUUGCUGAUGCUUAUUCUAAUAUGGGAAACACUCUAAAGGAGAUGCAG | 0.153
AAAGAACCUCUCUCUGAUGAAGAUGAGGAAGACAAUGAUGAUGUUGAACCCAUUUCUGAAUUUCGAUUUGUGCCCAGUGAUAAAUCAGCAUUGGAGGCAAUGUUCACAGCAAUGUGUGAG | 0.155
ACUCAGAGAUCCACCUCCCAAAGUGCUGGGAGUAAAGUCUGAUAUUACACACCUAACUUCAUAGACAUAUAUUUUUUUUAAUAUGAAUCUUCCUGUUCGUCCAGGGAAGAAAGAUUUGUU | 25.8
UCCCAAAUCCAGCAGCUAGAAGGAGCCUUGAGACAAACACUCCACACACAGGGAAGGCGAUAACAUUGUACAUUGGUUUACAUUUUUUCCCCCUGUGUUUUCUAGGGUCCUAGUGCUUGC | 0.222
AACAGAUUGUCUUUAAGCAUUCCAAGCGAGAAUGCUGGGGUGAUCAUAAUUACCCACGUGCCUUCUGACUGAGCUUUAAUGCUGUUCAUCCUUGAUGCUUUCCUUCACUCCAGAAUUGUU | 0.0958
AAAGCCCAAGUAUUUUGAAAAAACUCGAACAGAUUUGACAAGGGUAGCCAGCUUGGAGUCUAGCAACUUGCCAAUGUUGCUUACCAACUGGGGGCUUUGUUUUUCUUUCUUCUUUCAAAU | 0.161

Excerpt of the above (series 1):
Change | normalised enrichment score
KNIKRNLSSEFAN [A3I] | 0.512
KNAKRNLSGEFAN [S9G] | 0.201
KNAKRNLCSEFAN [S8C] | 0.195
KTAKRNLSSEFAN [N2T] | 0.807
KNAVRNLSSEFAN [K4V] | 0.78
